Results from different studies.
Compare with care: the assays were run in different laboratories. Several values in a cell are separate wells, animals, samples, runs or records.
ABL1 non-phosphorylated: Tyrosine-protein kinase ABL1, non-phosphorylated (ABL1, Homo sapiens, UniProt P00519)
ABL1 E255K phosphorylated: Tyrosine-protein kinase ABL1, phosphorylated (ABL1, Homo sapiens, UniProt P00519, E255K)
ABL1 Q252H phosphorylated: Tyrosine-protein kinase ABL1, phosphorylated (ABL1, Homo sapiens, UniProt P00519, Q252H)

`C=C1CCCCCCCCCC(CO)C1=O` (stereo not shown) gave a remaining binding of 100% (Tyrosine-protein kinase ABL1, phosphorylated (ABL1, Homo sapiens, UniProt P00519, T315I); cell-free assay, competition with immobilised ligand; 10 µM).
For `CNC(=O)C1CCN(c2cc(C)c(F)cc2NC(=O)c2ccc(-c3cc(O)ccc3C)c(C)c2)CC1`, the remaining binding was 20% (Tyrosine-protein kinase ABL1, phosphorylated (ABL1, Homo sapiens, UniProt P00519, F317I); binding, competition with immobilised ligand; 1 µM).
With `CC(=O)N1c2ccc(-c3ccc(CNC(=O)c4cn5cc(-c6cnc(N)nc6)nc(N6CCOCC6)c5n4)cc3)cc2CC[C@@H]1C` the remaining binding was 61% (ABL1 non-phosphorylated; KINOMEscan; 10 µM).
With `CCN1CCN(Cc2ccc(NC(=O)c3ccc(C)c(NC(=O)c4cncc(-c5cccs5)c4)c3)cc2C(F)(F)F)CC1` the remaining binding was 0.3% (ABL1 (Homo sapiens, UniProt P00519); binding, competition with immobilised ligand; 1 µM).
`COc1ccc(NC(=O)Nc2ccc3c(c2)C(=O)N(C(C)CO)CC(C)C(CN(C)Cc2ccc4c(c2)OCO4)O3)cc1` (stereo not shown) gave a remaining binding of 100% (ABL1 non-phosphorylated; binding, competition with immobilised ligand; 10 µM).
For `Nc1ncc2c(n1)-c1c([nH]c3ccc(C4=CCOCC4)cc13)CCC2`, the remaining binding was 100% (Tyrosine-protein kinase ABL1, phosphorylated (ABL1, Homo sapiens, UniProt P00519, H396P); binding, competition with immobilised ligand; 1 µM).
With `CNS(=O)(=O)Nc1nccc(Cc2c(C)c3ccc(Oc4ncccc4F)cc3oc2=O)c1F` the remaining binding was 89% (ABL1 E255K phosphorylated; binding, competition with immobilised ligand; 10 µM).
For `COc1c(Cl)cccc1Nc1c(-c2ccncc2C#C[C@@]2(C)CCCN2C(=O)/C=C/CN(C)C)[nH]c2c1C(=O)NCC2`, the remaining binding was 74% and 96% (ABL1 (Homo sapiens, UniProt P00519, F317I); KINOMEscan competition binding; 3 µM; relative to: control).
For `CNc1ccc(-c2n[nH]c3c2CCN(C(=O)c2ccccc2)C3)cc1`, the remaining binding was 23% (ABL1 non-phosphorylated; cell-free assay, competition with immobilised ligand; 10 µM).
With `CC(C)=CC1OC(C)(C)C2C=C3C(=O)C(Cl)=CC(O)C3C3C(O)C4OC4C(=O)C132` (stereo not shown) the remaining binding was 66% (Tyrosine-protein kinase ABL1, phosphorylated (ABL1, Homo sapiens, UniProt P00519); cell-free assay, competition with immobilised ligand; 10 µM).
`CN1CCN(Cc2ccc(NC(=O)c3cccc(C#Cc4cnc(N)c5ncccc45)c3)cc2C(F)(F)F)CC1` gave a remaining binding of 1.5% (ABL1 E255K phosphorylated; cell-free assay, competition with immobilised ligand; 0.5 µM).
For `Cc1ccc(-c2c(/C=C(\C#N)C(=O)NC(C)C)n(CCCO)c3ncnc(N)c23)cc1`, the remaining binding was 91% (ABL1 Q252H phosphorylated; cell-free assay, competition with immobilised ligand; 1 µM).
With `C=CC(=O)N1CCc2ccc(-n3c(=O)ccc4cnc5ccc(-c6cnn(C)c6)cc5c43)cc21` the remaining binding was 100% (ABL1 Q252H phosphorylated; KINOMEscan, item: (Q252H)-phosphorylated; 1 µM; relative to: control).

Excerpt of the above:
With `CCN1CCN(Cc2ccc(NC(=O)c3ccc(C)c(NC(=O)c4cncc(-c5cccs5)c4)c3)cc2C(F)(F)F)CC1` the remaining binding was 0.3% (ABL1 (Homo sapiens, UniProt P00519); binding, competition with immobilised ligand; 1 µM).
`COc1ccc(NC(=O)Nc2ccc3c(c2)C(=O)N(C(C)CO)CC(C)C(CN(C)Cc2ccc4c(c2)OCO4)O3)cc1` (stereo not shown) gave a remaining binding of 100% (ABL1 non-phosphorylated; binding, competition with immobilised ligand; 10 µM).
